Assay results pooled from the literature.
Every numbered part comes from another study and shows a few of its results, in no order.

Block 1
Target: RNA binding protein fox-1 homolog 2, RRM domain, GST-SBP tag (RBFOX2, Homo sapiens, UniProt O43251-10, residues 100-194)
Method: RNA Bind-n-Seq
Form: RNA
Matrix: in vitro
Concentration: 365 nM
Notes: natural RNA segment, single round, ends assumed
Baseline: no-protein control
Reading: higher = stronger binding
All sequences stand within: GGGAGUUCUACAGUCCGACGAUC … UGGAAUUCUCGGGUGCCAA
Target sequence (chain): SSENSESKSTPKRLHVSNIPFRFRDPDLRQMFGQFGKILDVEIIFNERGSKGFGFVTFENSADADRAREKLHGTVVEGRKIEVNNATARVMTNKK
Strand | RBNS enrichment (R)
CUUAAGUUUAAAAUAAAGCUUUUUAUACUGUAGCUUGAACUGUUUACCAUACAUUCUUUUGUAGUAAAAUAUAAGUCAGAUUUCAAUCAUCUAUGAUUCAAGACAGUGGG | 0.36
GCCAUGGCCUGCACCGUGGCGGUGGAAGAGAGCAUAGCACAUCACUACAACAACCAGAUCAGGACGCUGAUGGAGGAGGACCCUGAAAAAUACGAGGAACUUCUUCAGGU | 0.228
UUAGUGAGCUCAUUUCACACAGAUCGAGGGGGUAUGCGUGGGGGAGUUGUGAGUGAGCUCAGCUCCUUCAGGCCUGGCCUCUCCCAGAACAGAGUGAAGCCCCUGCCCUG | 0.725
CAGAAGUUUGAAUCAGAGGUCUGAGUGACCUCUUUUGUGGCUGUUCUUGAUGGUUUCCAGGCCUCGUUAUGCAUGGUUUGCUUGAUGCCCAUUUUUUGUGCCUUGUGCUG | 18.1
GCUUCUACAACACUGACCUCCAUGAGGUAUUUACUGUGCAAUAACAGAUUCGUCUUCUGAGAGCUUGAAGCAACCCAUGAUUUGUCCCUCCACUGCUCUUCACUGGGUUC | 0.241

Block 2
Target: Histone acetyltransferase KAT6A, winged helix 1, GST fusion (KAT6A, Homo sapiens, UniProt Q92794, residues 1-85)
Method: protein binding microarray
Form: double-stranded DNA, one strand shown
Matrix: in vitro
Concentration: not given
Notes: 8-mer, flanks averaged, mean of 2 arrays, mostly near background
Baseline: not given
Reading: higher = stronger binding
Target sequence (chain): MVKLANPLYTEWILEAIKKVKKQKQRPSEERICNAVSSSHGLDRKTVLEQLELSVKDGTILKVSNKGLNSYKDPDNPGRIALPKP
Strand | E-score
AGCCGTGA | 0.39
TCTAGCCA | -0.0998
GCGTGCCC | 0.193
ACTCTCCG | 0.0524

Block 3
Target: Interferon regulatory factor 7, full length, phosphomimetic (IRF7, Homo sapiens, UniProt Q92985, residues 1-503, S101K/S471D/S472D/S475D/S476D/S477D/S483D/S484D/S487D)
Method: protein-binding microarray
Form: double-stranded DNA, one strand shown
Matrix: in vitro
Concentration: 250 nM
Notes: 60-bp whole probe
Together with: salmon DNA 0.4 mg/ml
Baseline: random background probes
Reading: higher = stronger binding
Construct (chain): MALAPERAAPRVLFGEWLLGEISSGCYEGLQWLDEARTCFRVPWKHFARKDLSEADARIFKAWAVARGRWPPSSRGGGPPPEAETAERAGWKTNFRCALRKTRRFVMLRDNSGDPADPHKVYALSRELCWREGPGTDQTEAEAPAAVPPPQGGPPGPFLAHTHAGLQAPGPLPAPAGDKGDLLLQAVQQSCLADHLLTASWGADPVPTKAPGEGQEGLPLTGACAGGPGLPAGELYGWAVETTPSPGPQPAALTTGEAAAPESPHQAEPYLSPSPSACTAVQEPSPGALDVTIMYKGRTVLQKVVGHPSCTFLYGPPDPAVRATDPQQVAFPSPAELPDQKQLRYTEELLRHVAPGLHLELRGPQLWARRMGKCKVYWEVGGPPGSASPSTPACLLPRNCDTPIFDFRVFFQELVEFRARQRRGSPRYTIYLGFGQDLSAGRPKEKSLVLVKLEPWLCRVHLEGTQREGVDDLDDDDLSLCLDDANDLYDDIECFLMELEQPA
Strand | log fluorescence [z-score]
GCCTAGCACTTAGGTTTCGGTCTCGGATAGTGCTAGGTCTTGATTCGCTTGACGCTGCTG | 8.47
GCCTAGCACGACGGTTTCCTTATCCTGAGGTGCTAGGTCTTGATTCGCTTGACGCTGCTG | 2.99
GCCTAGCACGACGAAATGAGACTGGAGACGTGCTAGGTCTTGATTCGCTTGACGCTGCTG | 0.0347
GCCTAGCACTCAGGGCTCTCTTCTGCTACTGTGCTAGTCTTGATTCGCTTGACGCTGCTG | -0.384

Other studies, line by line
Substance | target | assay | system | setting | how to read | measurement | value
PhoQ, residues 284 288 289 292 302 303 AAQSYM | PhoP, residues 12 14 15 18 19 STHWV (Escherichia coli, UniProt P23836) | Sort-seq, measured: YFP reporter | E. coli | PhoQ-PhoP variant library, together with: 10 µM Mg2+ | baseline: high Mg2+ state, higher = stronger signaling | fold induction | 7.76

For quick reference, copied from above (block 2):
Strand | E-score
GCGTGCCC | 0.193
ACTCTCCG | 0.0524
